Results gathered from unrelated publications.
Each line is one published result; not all experiments were run side by side. Several values in a cell are separate wells, animals, samples, runs or records. Numbers after ± are the reported error.
Target: Receptor tyrosine-protein kinase erbB-2 (ERBB2, Homo sapiens, UniProt P04626)

With `COc1ccc(NC(=O)N/N=C2\CC3(CCN(C)CC3)Oc3ccccc32)cc1` the IC50 was 85 nM (enzyme activity, inhibitor).
`C=CC(=O)N1CCc2ccc(-n3c(=O)ccc4cnc5ccc(-c6cnn(C)c6)cc5c43)cc21` gave an IC50 of 8530 nM (enzyme activity, inhibitor).
The IC50 of `NS(=O)(=O)c1ccc(-n2c(SCC(=O)Nc3ccccc3F)nc3cc4ccccc4cc3c2=O)cc1` is reported as 69 ± 15 nM (kinase activity, inhibitor).
`C#Cc1cccc(Nc2ncnc3cc(OC)c(OCCCN4CCOCC4)cc23)c1` has an IC50 of 90.8 nM and 90 nM (kinase activity, inhibitor; together with: ATP 80.8 µM).
For `CCN1CCC2(CC1)C/C(=N\NC(=O)Nc1ccccc1)c1ccccc1O2`, the IC50 was 210 nM (enzyme activity, inhibitor).
`Cc1ccc2oc(-c3c4c(N)n[nH]c(=O)c4nn3-c3ccc(NC(=O)/C=C/CN(C)C)cc3)c(C)c2c1` has an IC50 of over 1000 nM (enzyme activity, inhibitor, ELISA).
For `Cc1cc(N2CCN(C(=O)CN3CCN(c4ccccc4)CC3)CC2)n2ncnc2n1`, the IC50 was 210 nM (inhibitor).
With `COc1ccc(-c2oc3ncnc(NCc4ccccc4)c3c2-c2ccc(OC)cc2)cc1` the Kd was 7 µM (binding, competition with immobilised ligand).
For `Cc1ccc(-c2nn(-c3ccc(S(C)(=O)=O)cc3)cc2/C=N/N=C2/NC(=O)CS2)cc1`, the IC50 was 32 nM (enzyme activity, inhibitor, ATP luminescence).
The IC50 of `CN(C1COC1)C(C)(C)/C=C(\C#N)C(=O)N1CCC[C@H]1Cn1nc(-c2ccc(Oc3ccccc3)cc2F)c2c(N)ncnc21` is reported as over 3000 nM (enzyme activity, inhibitor).

Some of these lines once more:
The IC50 of `CN(C1COC1)C(C)(C)/C=C(\C#N)C(=O)N1CCC[C@H]1Cn1nc(-c2ccc(Oc3ccccc3)cc2F)c2c(N)ncnc21` is reported as over 3000 nM (enzyme activity, inhibitor).
